Measurements gathered from unrelated publications.
Compare with care: the assays were run in different laboratories. “And” joins repeats or separate records; there may be more than shown. ± gives the spread as reported.

With N=C(N)NCCC[C@H](NC(=O)[C@H](CCCNC(=N)N)NC(=O)[C@H](CCCCN)NC(=O)[C@H](CCC(N)=O)NC(=O)[C@H](CCCCN)NC(=O)[C@H](Cc1ccc(O)cc1)NC(=O)[C@@H](N)CCCCN)C(=O)N[C@@H](CO)C(=O)N[C@@H](Cc1ccc(O)cc1)C(=O)N[C@@H](CCCCN)C(=O)O the VAS change was -25.7 ± 29 (dentin hypersensitivity patients aged 30-40 years; 10 µg/tooth, day 36, unit not given; reference: baseline).
For NC(=O)c1cnc2[nH]ccc2c1N[C@@H]1[C@@H]2CC3C[C@H]1C[C@@](O)(C3)C2, the percent change was -0.05% (CD4+ effector T cells, flow cytometry; Japanese humans, peripheral blood; 200 mg single dose; reference: baseline).
C=CC(=O)Nc1cc(Nc2ncc(C(=O)OC(C)C)c(-c3cn(C)c4ccccc34)n2)c(OC)cc1N(C)CCN(C)C — result for “objective response rate”: 19% (EGFR NSCLC patients; 120 mg once daily, dose escalation and expansion).
The EC50 of CC1(C)CCC(c2ccc(Cl)cc2)=C(CN2CCN(c3ccc(C(=O)NS(=O)(=O)c4ccc(N[C@H](CCN5CCOCC5)CSc5ccccc5)c(S(=O)(=O)C(F)(F)F)c4)cc3)CC2)C1 is reported as 32 nM (cell kill; primary neoplastic T lymphocytes, dog 25; 24 h, T-cell CLL).
For N#Cc1ccc2c(c1)[C@H]1CCCN(C(=O)c3ccc4[nH]cnc4c3)[C@H]1C2, “HbA1c change from baseline” read -0.05% (human, Phase II trial; oral, 20 mg once daily, day 28, adjusted mean, SE).
For CN(C(=O)n1cnc(-c2ccc[n+]([O-])c2)c1)C1CCCCC1, “licking time score” read 1.7 (mice, formalin paw test; 3 mg/kg, late phase, added: anandamide 5 mg/kg i.p.; direction not given).
CN[C@@H](C)C(=O)N[C@H]1CN(S(=O)(=O)c2cccc(S(=O)(=O)N3CC[C@H]4CC[C@@H](C(=O)NC(c5ccccc5)c5ccccc5)N4C(=O)[C@@H](NC(=O)[C@H](C)NC)C3)c2)CC[C@H]2CC[C@@H](C(=O)NC(c3ccccc3)c3ccccc3)N2C1=O: “objective response rate” 20% (RECIST 1.1; advanced pancreatic cancer patients; dose not given, efficacy-evaluable, added: AG).
For CC(C)(O)c1coc(S(=O)(=O)NC(=O)c2cc3ccccc3n2Cc2ccc(Br)c3ccccc23)c1, “serum uric acid decrease” read 75.4% (mouse, acute hyperuricaemia model, serum; oral, 2 mg/kg; reference: vehicle model).
OC(CCN1CCCCC1)(c1ccccc1)C1CC2C=CC1C2 (centres unmarked) — result for “delta power change, EEG, in Pz-O1”: 27.2% (resting-state EEG; healthy elderly humans; oral, 4 mg, eyes closed, LS mean; reference: baseline).
[Cl-].[Cl-].[Pt+2].[Ru+2].c1ccc(-c2nc3ccccc3nc2-c2ccccn2)nc1.c1cnc2c(c1)ccc1cccnc12.c1cnc2c(c1)ccc1cccnc12: “activation free energy” 19.6 ± 0.478 kcal/mol (chloride substitution, UV-vis kinetics; aqueous buffer; pH 7.2, 35 °C, second substitution step, added: thiourea).
C=CCn1c(=O)c2cnc(Nc3ccc(N4CCN(C)CC4)cc3)nc2n1-c1ccc2c(n1)[C@@](O)(CC)CC2: “tumour volume difference” 35 ± 7.6 mm3 (SK-UT-1 xenograft, BALB/c nude mice; oral, 80 mg/kg, day 24, 6 d on, 1 d off x 4 cycles).
C[C@H](Oc1ccc(Br)cc1-c1ccon1)C(=O)O: “difference from placebo” 0.137 mV (mean CMAP amplitude; human, tibialis anterior muscle; 1200 mg, SAD).
With C[C@@H](O)CCOC(=O)C[C@@H](C)O the metabolite level was -7.47 ± 0.54 µmol/L (refers to: C18:1-OH/C16:1-DC acylcarnitine; human, plasma; 60 min, log2-transformed values).
COc1ccc(-c2cncc(N[C@@H](C)c3cccc(NC(=O)c4cncc(C)c4)c3)n2)cc1OC has a fold change of 1.04 (refers to: rno-miR-361-5p; rat SU5416/hypoxia model, lung; dose not given; reference: SU5416/hypoxia vehicle).
For COc1cc2cc(-c3ccc(CC(=O)Nc4cc(C(C)(C)C(F)(F)F)no4)cn3)cnc2cc1OC, “disease control rate” read 54% (RECIST v1.1; RET-altered advanced solid tumour patients; oral, 75 mg once daily, phase I).
With [Cl-].[Cl-].[Pt+2].[Ru+2].c1ccc(-c2nccnc2-c2ccccn2)nc1.c1cnc2c(c1)ccc1cccnc12.c1cnc2c(c1)ccc1cccnc12 the activation enthalpy was 7.89 ± 0.478 kcal/mol (concentration not given, first substitution step, added: thiourea).
The Vmax of Cc1ccc(Nc2c(F)cccc2Cl)c(CC(=O)O)c1 is reported as 4.2 pmol/min/mg protein (bioactivation, refers to: dansyl glutathione adduct M6a; human; pathway 3).
O=C(NS(=O)(=O)c1ccccc1)c1cc2ccccc2n1Cc1ccc(C2CC2)c2ccccc12 — result for “serum uric acid”: 180 ± 4 µM (male mouse, acute hyperuricaemia model, serum; oral, 2 mg/kg, 4 h).
COc1nnc2ccc(N3CCC(c4ccc(OCCN5CCN(C)C(=O)[C@H]5C)cc4)CC3)nn12: “time above HEXIM1 threshold” 1.39 h (human patients; 2 mg once daily, 1.5-fold above baseline).
CC(C)NCC(O)c1ccc(O)c(O)c1 (centres unmarked) has a sarcomere length of 1.72 µm (ventricular cardiomyocytes, C57BL/6 mouse; dose not given, 0.712 s).
CSCCNc1nc(SCCC(F)(F)F)nc2c1ncn2[C@@H]1O[C@H](COP(=O)(O)OP(=O)(O)C(Cl)(Cl)P(=O)(O)O)[C@@H](O)[C@H]1O — result for “high residual platelet reactivity”: 14.3% (ADP-induced platelet aggregation, Multiplate aggregometry; human patients, whole blood; dose not given, 2 h, AUC above 46; reference: patients).
COCCOc1cnc2ccn([C@H](C)c3nnc4c(F)cc(-c5cnn(C)c5)cn34)c(=O)c2c1 — result for “median duration of response”: 202 days (advanced solid tumours; dose not given).
For O=C(NS(=O)(=O)C1CC1)c1cc2ccccc2n1Cc1ccc(Br)c2ccccc12, “serum uric acid” read 940 µM and 1120 µM and 1080 µM (mouse, acute hyperuricemia model; dose not given).
Cc1ccc([C@@H]2O[C@H](CO)[C@@H](O)[C@H](O)[C@H]2O)cc1Cc1ccc(-c2ccc(F)cc2)s1: “change in fasting plasma glucose” -29 mg/dL (Japanese type 2 diabetes patients; 100 mg, day 17; reference: day 1).
CO[C@H]1CC[C@H](N2C(=O)CNc3ncc(-c4ccc(C(C)(C)O)nc4)nc32)CC1: “pS6RP change from baseline” -13.8% (flow cytometry; stimulated B cells, human, blood; 30 mg single dose, 24 h, median; reference: baseline).
c1ccc(-c2n[nH]cc2-c2ccnc3ccccc23)nc1: “log2 fold change” 1.56 (kinase binding, competitor, MIB/MS competition, refers to: TPK2; Candida albicans cell lysate; 100 nM; reference: DMSO).
C=Cc1ccccc1: “activation free energy ΔG‡” 19.8 kcal/mol (iEDDA reaction; methanol/water; 21 °C, added: tetrazine).
O=C(O)CNC(=O)Cc1ccccc1 gave a sarcomere length of 1.72 µm (ventricular cardiomyocytes, C57BL/6 mouse; dose not given, 0.744 s).
CC(C)c1cccc2c(-c3ccccc3)cc(-c3ccc(-c4ccc(C(=O)O)cc4)[nH]3)nc12 has a testis weight of 0.11 g (CD-1 mouse, male; oral, 5 mg/kg, 7 days dosing, one day after last dose).
For CN[C@@H]1COc2c(S(=O)(=O)NC(=O)Nc3c4c(cc5c3CCC5)CCC4)cnn2C1, the inhibition was -45.8% (refers to: IL-18; human participants, whole blood ex vivo; 450 mg single dose, 48 h, IL-18, circulating, adjusted for, added: LPS/ATP; reference: baseline).
Under “log2 fold change”, N#Cc1ccc2c(-c3ccncc3)c(-c3ccc(F)cc3)nn2c1 is recorded as 0.447 (kinase binding, competitor, MIB/MS competition, refers to: CEK1; Candida albicans cell lysate; 1 µM; reference: DMSO).
The ejection fraction of COc1cc(F)c([C@@H]2CNC(=O)[C@H]2NC(=O)Nc2ccccc2)c(F)c1 is reported as 57 ± 19% (LV haemodynamics; rat, myocardial ischaemia-reperfusion; 1 mg/kg, 1008 h, 6 weeks post-injury).
For C=CC(=O)Nc1cc(Nc2ncc(C(=O)OC(C)C)c(-c3cn(C)c4ccccc34)n2)c(OC)cc1N(C)CCN(C)C, “growth rate difference” read 0.0171 (mice, NCI-H2073 vs LXF 2478 xenografts; highest clinically relevant dose, unit not given; reference: NCI-H2073 minus LXF 2478).
Under “disease control rate”, COc1ccc([C@@H](O)c2cc(-c3ncnc4cc(N5CCOCC5)ccc34)c(F)cc2Cl)nn1 is recorded as 1% (RECIST version 1.1; patients, advanced solid tumours; 400 mg twice daily, added: avelumab; reference: patients).
For CC(C)[C@H](NC(=O)[C@H](Cc1ccc(O)cc1)NC(=O)[C@H](Cc1ccc(O)cc1)NC(=O)[C@@H]1CCCN1C(=O)[C@H](CCC(=O)O)NC(=O)[C@H](CCC(=O)O)NC(=O)[C@H](Cc1c[nH]c2ccccc12)NC(=O)[C@@H]1CCCN1C(=O)[C@@H](NC(=O)[C@H](CCC(N)=O)NC(=O)c1ccc2c(c1)C(=O)OC21c2ccc(O)cc2Oc2cc(O)ccc21)C(C)C)C(=O)N[C@H](C(=O)N[C@@H](CCCCN)C(=O)N[C@@H](CCCCN)C(=O)N[C@@H](CO)C(=O)N[C@@H](CO)C(=O)NCC(=O)NCC(N)=O)C(C)C, “surgeons rating very much improved” read 7.1% (nerve discrimination; head and neck surgery patients; 500 mg; reference: white light).
For Cn1cc([C@H]2C[C@H]3CSC(N)=N[C@@]3(c3ccc(F)cc3F)CO2)cn1, the Aβ42 level was 0.49 ng/g (refers to: Aβx-42; Mus musculus wild-type, brain; subcutaneous, 3 mg/kg, 6 h).
CC(C)(C)S(=O)(=O)NC(=O)c1cc2ccccc2n1Cc1ccc(Br)c2ccccc12: “serum uric acid” 458 µM and 404 µM and 440 µM (mouse, acute hyperuricemia model; dose not given).
For C[C@H]1C[C@H]2CSC(N)=N[C@@]2(c2nc(NC(=O)c3ccc(OC(F)F)cn3)cs2)CO1, “plasma Aβ1-40 change” read -84.3% (healthy adults, fed, plasma; oral, 200 mg single dose, 48 h; reference: baseline, placebo-adjusted).
For Cc1n[nH]c2ccc(-c3cc(OC[C@@H](N)Cc4ccccc4)cnc3-c3ccoc3)cc12, “log2 fold change” read -0.625 (kinase binding, competitor, MIB/MS competition, refers to: GIN4; Candida albicans cell lysate; 10 µM; reference: DMSO).
For CC(C)(C)c1ccc(S(=O)(=O)NC(=O)c2cc3ccccc3n2Cc2ccc(Br)c3ccccc23)cc1, “serum uric acid” read 1010 µM and 1190 µM and 725 µM (mouse, acute hyperuricemia model; dose not given).
For CC(C)C[C@H](NC(=O)[C@@H](Cc1c[nH]c2ccccc12)NC(=O)[C@H](Cc1ccc(O)cc1)NC(=O)[C@H](CO)NC(=O)[C@H](Cc1c[nH]c2ccccc12)NC(=O)[C@H](Cc1c[nH]cn1)NC(=O)[C@@H]1CCC(=O)N1)C(=O)N[C@@H](CCCNC(=N)N)C(=O)N1CCC[C@H]1C(=O)NCC(N)=O, “basal FSH level” read 1.4 IU/L (Chinese children, central precocious puberty, serum; intramuscular, 22.5 mg day 1, month 6, month 9).
For Cc1cc(C)c(CNC(=O)c2cc(Cl)c3c(c2C)O[C@@](C)([C@H]2CC[C@H](N(C)C)CC2)O3)c(=O)[nH]1, “disease control rate (CR+CRu+PR+SD)” read 71% (relapsed/refractory ATLL patients; dose not given, modified ATLL criteria 2009).
O=C(COc1ccc(Cl)cc1)NC12CC(c3nnc([C@H]4C[C@@H](OC(F)(F)F)C4)o3)(C1)C2 — result for “CHAC1 mRNA change”: -72% (healthy human, PBMC; oral, 800 mg single dose, day 2, 24 h post-dose, median, added: sodium arsenite ex vivo; reference: baseline).
N#Cc1ccc2c(c1)[C@H]1CCCN(C(=O)c3ccc4[nH]cnc4c3)[C@H]1C2 has a plasma 1,5-anhydroglucitol of 12.2 µg/mL (T2DM patients with overweight or obesity, plasma; oral, 160 mg, day 15 (360 h), multiple dosing, mean).
With CN(C)C(=O)Oc1cccc([N+](C)(C)C)c1 the ED70 was 0.015 mg/kg (twitch force recovery; rats with neuromuscular block; iv, added: cisatracurium infusion).
C[C@@H](NC(=O)N1C(=O)[C@H](Cc2ccnc(N)c2)[C@H]1C(=O)O)C1CCCCC1 has an ACT AUEC of 144 (human; iv infusion, 1.0 mg/kg/h, 24 h, unit not given; reference: baseline).
Cn1cc(Nc2nccc(-c3ccc4c(c3)CN(C3COC3)CC[C@H]4NC(=O)c3cn(C(C)(C)C)nn3)n2)cn1: “pathway activation z-score” 2.71 (refers to: Glioma Invasiveness Signaling; splenic B cells, mouse; in vivo, 30 mg/kg, IgD-activated B cells; reference: vehicle, positive = activation).

A few entries again:
For COc1cc2cc(-c3ccc(CC(=O)Nc4cc(C(C)(C)C(F)(F)F)no4)cn3)cnc2cc1OC, “disease control rate” read 54% (RECIST v1.1; RET-altered advanced solid tumour patients; oral, 75 mg once daily, phase I).
With [Cl-].[Cl-].[Pt+2].[Ru+2].c1ccc(-c2nccnc2-c2ccccn2)nc1.c1cnc2c(c1)ccc1cccnc12.c1cnc2c(c1)ccc1cccnc12 the activation enthalpy was 7.89 ± 0.478 kcal/mol (concentration not given, first substitution step, added: thiourea).
The Vmax of Cc1ccc(Nc2c(F)cccc2Cl)c(CC(=O)O)c1 is reported as 4.2 pmol/min/mg protein (bioactivation, refers to: dansyl glutathione adduct M6a; human; pathway 3).
O=C(NS(=O)(=O)c1ccccc1)c1cc2ccccc2n1Cc1ccc(C2CC2)c2ccccc12 — result for “serum uric acid”: 180 ± 4 µM (male mouse, acute hyperuricaemia model, serum; oral, 2 mg/kg, 4 h).
COc1nnc2ccc(N3CCC(c4ccc(OCCN5CCN(C)C(=O)[C@H]5C)cc4)CC3)nn12: “time above HEXIM1 threshold” 1.39 h (human patients; 2 mg once daily, 1.5-fold above baseline).
CC(C)NCC(O)c1ccc(O)c(O)c1 (centres unmarked) has a sarcomere length of 1.72 µm (ventricular cardiomyocytes, C57BL/6 mouse; dose not given, 0.712 s).
CSCCNc1nc(SCCC(F)(F)F)nc2c1ncn2[C@@H]1O[C@H](COP(=O)(O)OP(=O)(O)C(Cl)(Cl)P(=O)(O)O)[C@@H](O)[C@H]1O — result for “high residual platelet reactivity”: 14.3% (ADP-induced platelet aggregation, Multiplate aggregometry; human patients, whole blood; dose not given, 2 h, AUC above 46; reference: patients).
COCCOc1cnc2ccn([C@H](C)c3nnc4c(F)cc(-c5cnn(C)c5)cn34)c(=O)c2c1 — result for “median duration of response”: 202 days (advanced solid tumours; dose not given).
